# Measurements of several laboratories.
# Each line is one published result; not all experiments were run side by side. ± gives the spread as reported.
# Sequence of UniProt Q80W57 (whole entry, looked up): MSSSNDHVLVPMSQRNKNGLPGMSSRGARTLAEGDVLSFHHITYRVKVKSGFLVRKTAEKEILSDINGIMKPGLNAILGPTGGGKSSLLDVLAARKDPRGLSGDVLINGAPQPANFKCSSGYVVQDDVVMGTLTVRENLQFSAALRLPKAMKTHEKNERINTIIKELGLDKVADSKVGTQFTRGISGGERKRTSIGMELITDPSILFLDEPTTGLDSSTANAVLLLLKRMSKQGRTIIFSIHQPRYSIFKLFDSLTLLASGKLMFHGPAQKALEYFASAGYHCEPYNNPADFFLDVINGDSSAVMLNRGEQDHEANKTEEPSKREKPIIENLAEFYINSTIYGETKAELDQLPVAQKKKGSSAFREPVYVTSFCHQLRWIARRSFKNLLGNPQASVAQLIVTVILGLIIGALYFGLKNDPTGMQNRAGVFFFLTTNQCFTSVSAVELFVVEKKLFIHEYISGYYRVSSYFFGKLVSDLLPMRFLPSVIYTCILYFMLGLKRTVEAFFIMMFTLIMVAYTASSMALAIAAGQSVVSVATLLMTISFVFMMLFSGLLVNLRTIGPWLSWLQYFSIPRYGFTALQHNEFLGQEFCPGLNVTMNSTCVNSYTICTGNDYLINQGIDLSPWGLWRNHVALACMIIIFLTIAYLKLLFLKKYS
# Sequence of UniProt Q5S006 (whole entry, looked up): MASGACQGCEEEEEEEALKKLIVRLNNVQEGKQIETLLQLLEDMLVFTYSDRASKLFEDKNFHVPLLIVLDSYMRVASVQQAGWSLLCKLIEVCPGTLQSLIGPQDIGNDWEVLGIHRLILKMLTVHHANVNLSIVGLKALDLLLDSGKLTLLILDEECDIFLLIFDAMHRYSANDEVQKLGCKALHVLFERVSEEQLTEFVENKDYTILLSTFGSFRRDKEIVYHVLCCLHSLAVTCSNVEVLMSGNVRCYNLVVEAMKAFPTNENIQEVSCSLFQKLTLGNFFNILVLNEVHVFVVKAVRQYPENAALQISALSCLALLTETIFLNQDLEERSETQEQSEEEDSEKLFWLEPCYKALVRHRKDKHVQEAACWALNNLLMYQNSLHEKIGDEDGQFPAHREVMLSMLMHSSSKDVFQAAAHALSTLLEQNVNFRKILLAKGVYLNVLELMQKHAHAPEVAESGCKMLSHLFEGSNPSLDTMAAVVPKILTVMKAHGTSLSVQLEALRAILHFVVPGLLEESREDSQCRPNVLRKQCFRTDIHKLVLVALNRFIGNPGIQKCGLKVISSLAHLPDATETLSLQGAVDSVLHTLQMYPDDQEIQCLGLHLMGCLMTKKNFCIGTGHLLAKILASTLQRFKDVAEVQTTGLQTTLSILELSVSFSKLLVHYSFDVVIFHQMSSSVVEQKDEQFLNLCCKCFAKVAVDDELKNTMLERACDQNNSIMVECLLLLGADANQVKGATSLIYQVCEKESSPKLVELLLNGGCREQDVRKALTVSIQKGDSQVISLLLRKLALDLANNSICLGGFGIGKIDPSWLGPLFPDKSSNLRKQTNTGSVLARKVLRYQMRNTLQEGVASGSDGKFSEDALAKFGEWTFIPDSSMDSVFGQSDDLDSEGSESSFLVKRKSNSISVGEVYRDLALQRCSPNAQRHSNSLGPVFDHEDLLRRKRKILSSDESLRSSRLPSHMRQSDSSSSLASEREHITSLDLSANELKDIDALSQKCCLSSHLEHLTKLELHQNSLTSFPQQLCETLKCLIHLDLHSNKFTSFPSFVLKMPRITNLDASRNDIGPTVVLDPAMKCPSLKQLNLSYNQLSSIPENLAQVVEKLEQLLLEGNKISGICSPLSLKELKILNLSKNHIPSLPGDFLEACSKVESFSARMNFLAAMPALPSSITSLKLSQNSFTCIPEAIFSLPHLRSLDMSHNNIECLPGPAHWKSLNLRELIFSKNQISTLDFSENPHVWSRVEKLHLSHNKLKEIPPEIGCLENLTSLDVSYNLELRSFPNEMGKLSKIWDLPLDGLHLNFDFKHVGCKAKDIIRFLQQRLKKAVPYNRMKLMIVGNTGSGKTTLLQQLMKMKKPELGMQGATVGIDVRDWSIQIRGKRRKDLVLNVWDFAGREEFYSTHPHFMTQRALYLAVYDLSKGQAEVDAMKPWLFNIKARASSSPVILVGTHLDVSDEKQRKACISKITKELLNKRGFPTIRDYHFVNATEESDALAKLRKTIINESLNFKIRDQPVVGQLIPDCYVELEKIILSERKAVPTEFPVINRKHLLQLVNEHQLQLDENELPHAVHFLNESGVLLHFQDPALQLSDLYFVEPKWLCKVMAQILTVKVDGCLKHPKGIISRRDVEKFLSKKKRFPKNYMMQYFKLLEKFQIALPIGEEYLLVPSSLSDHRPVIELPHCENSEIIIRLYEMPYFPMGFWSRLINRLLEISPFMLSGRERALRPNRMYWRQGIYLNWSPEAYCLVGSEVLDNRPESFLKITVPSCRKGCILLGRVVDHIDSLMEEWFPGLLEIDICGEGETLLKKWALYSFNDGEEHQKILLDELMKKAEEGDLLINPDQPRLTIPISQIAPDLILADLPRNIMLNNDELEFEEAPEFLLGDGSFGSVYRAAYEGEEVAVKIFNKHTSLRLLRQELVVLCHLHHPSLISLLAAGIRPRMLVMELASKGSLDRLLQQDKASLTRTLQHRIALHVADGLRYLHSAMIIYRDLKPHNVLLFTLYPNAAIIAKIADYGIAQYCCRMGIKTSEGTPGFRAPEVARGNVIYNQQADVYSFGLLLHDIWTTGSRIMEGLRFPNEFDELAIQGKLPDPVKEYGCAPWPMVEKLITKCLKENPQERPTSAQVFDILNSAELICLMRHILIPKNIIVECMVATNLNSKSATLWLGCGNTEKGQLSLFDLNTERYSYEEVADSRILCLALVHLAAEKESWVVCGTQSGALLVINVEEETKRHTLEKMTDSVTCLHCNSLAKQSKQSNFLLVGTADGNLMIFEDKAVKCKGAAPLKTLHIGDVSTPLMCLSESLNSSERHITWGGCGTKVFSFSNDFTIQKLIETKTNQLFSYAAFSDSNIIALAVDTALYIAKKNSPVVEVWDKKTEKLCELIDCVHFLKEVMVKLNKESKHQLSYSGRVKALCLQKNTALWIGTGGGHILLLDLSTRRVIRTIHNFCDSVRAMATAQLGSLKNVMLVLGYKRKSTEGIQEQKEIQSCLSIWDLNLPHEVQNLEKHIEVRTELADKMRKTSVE
SMILES,tested on,test,system,conditions,endpoint,result
CCOc1ccc(NC(=S)N(CCO)Cc2cc3cc(C)cc(C)c3[nH]c2=O)cc1,,,"C57BL/6J mouse, plasma","intravenous, 3 mg/kg, together with: ABT 50 mg/kg oral pretreatment 2 h before",Cmax,5630 ng/mL
COc1cccc2c1C(=O)c1c(O)c3c(c(O)c1C2=O)C[C@@](O)(C(=O)CO)C[C@@H]3O[C@H]1C[C@H](N)[C@H](O)[C@H](C)O1,,,"mouse, E0771 tumour-bearing, liver","intravenous, 92 µmol/kg",Cmax,189000 nM
COc1ccc(CCC(C)=O)cc1,,,"obese male C57BL/6J mice, plasma","oral, 200 mg/kg, high-fat diet 8 weeks",Cmax,64 ± 15 nM
Cc1nc2cccc(OCC(C)(C)C(=O)NC(C)C)c2c(N)c1C(=O)O,,,"Sprague-Dawley rat (both sexes), plasma","dietary, 30 mg/kg/day, day 7",Cmax,12.9 ng/mL
OCc1ccccc1,cysteine peptide Ac-RFAACAA-COOH,DPRA RapidFire-MS/MS,,"24 h, pH 7.5, together with: 5.0 µM cysteine peptide",peptide depletion,inactive
COc1cccc(-c2n[nH]c(SCc3ccccn3)n2)c1OC,,,"Sprague-Dawley rat, both sexes, plasma","oral, diet, 10 mg/kg/day, day 90",Cmax,846 ng/mL
OCCc1ccc(O)c(O)c1,,,"male C57BL/6J mice low-fat diet, plasma","oral, 200 mg/kg, diet 8 weeks",Cmax,74 ± 17 nM
CC(=O)N[C@@H](Cc1ccccc1)C(=O)N[C@H]1CCCNC(=O)[C@H](CCCNC(=N)N)NC(=O)[C@H](Cc2c[nH]c3ccccc23)NC(=O)[C@@H](CC2CCCCC2)NC(=O)[C@@H]2CCCN2C1=O,,,"C57BL/6J mouse, plasma","subcutaneous, 1 mg/kg, single dose",Cmax,3770 ng/mL
CCCC[C@H](NC(C)=O)C(=O)N[C@H]1CCC(=O)NC[C@@H](C(=O)N[C@@H](Cc2c[nH]c3ccccc23)C(N)=O)NC(=O)[C@H](CCCNC(=N)N)NC(=O)[C@@H](Cc2ccccc2)NC(=O)[C@H](Cc2c[nH]cn2)NC1=O,,,"beagle dog, male, plasma","subcutaneous, 1.5 mg/kg daily, day 1",Cmax,116 ng/mL
NC(=O)[C@H](Cc1ccccc1)NC(=O)[C@]1(Cc2ccccc2)CCN1C(=O)OCc1ccccc1,HEL,microscopic cell morphology,,,minimum cytotoxic concentration,100 µM
CC[C@H](C)[C@@H]1NC(=O)[C@H](Cc2ccc(O)cc2)NC(=O)[C@@H](N)CSSC[C@@H](C(=O)N2CCC[C@H]2C(=O)N[C@@H](CC(C)C)C(=O)NCC(N)=O)NC(=O)[C@H](CC(N)=O)NC(=O)[C@H](CCC(N)=O)NC1=O,,"microdialysis, radioimmunoassay","knock-out male mice lacking compound, amygdala extracellular fluid","intraperitoneal, 12 µg total",Cmax,2.31 pg/sample
O=c1c(O)c(-c2ccc(O)cc2)oc2cc(OS(=O)(=O)O)cc(O)c12,,,"FVB mice, male, Mrp1^−/−, plasma","oral, 10 mg/kg of kaempferol",Cmax,153 ± 62 nM
Cc1cc(Nc2cc3ncccc3c(N[C@@H]3C[C@H]4CC[C@@H](C3)N4CCC#N)n2)n[nH]1,,,"pregnant rat, maternal plasma","oral, 30 mg/kg/day, gestation day 6",Cmax,1.85 ng/mL
Nc1ncnc2c1ncn2[C@@H]1O[C@H](COP(=O)(O)OP(=O)(O)O)[C@@H](O)[C@H]1O,"Lrrk2 (Mus musculus, UniProt Q5S006)","enzyme activity, inhibitor, TR-FRET",,"Ki,e, together with: PLK-peptide varied",Ki,100 ± 30 µM
O=C(O)c1cc(/N=N/c2ccc(S(=O)(=O)Nc3ccccn3)cc2)ccc1O,"Abcg2 (Rattus norvegicus, UniProt Q80W57)",,"male Sprague-Dawley rat, plasma","oral, 2 mg/kg",Tmax,26.3 min
O=C(O)c1ccc(O)cc1,cysteine peptide Ac-RFAACAA-COOH,DPRA RapidFire-MS/MS,,"24 h, pH 7.5, together with: 5.0 µM cysteine peptide",maximal peptide depletion,-14.4%

# Some of these lines once more:
SMILES,tested on,test,system,conditions,endpoint,result
Nc1ncnc2c1ncn2[C@@H]1O[C@H](COP(=O)(O)OP(=O)(O)O)[C@@H](O)[C@H]1O,"Lrrk2 (Mus musculus, UniProt Q5S006)","enzyme activity, inhibitor, TR-FRET",,"Ki,e, together with: PLK-peptide varied",Ki,100 ± 30 µM
